Results pooled from the literature.
Protocols differ between the studies behind these lines. Numbers after ± are the reported error.
Spike glycoprotein Beta variant: Spike glycoprotein, Beta variant (Severe acute respiratory syndrome coronavirus 2, UniProt P0DTC2)
Cacna1b with α2δ, β3 subunits: Voltage-dependent N-type calcium channel subunit alpha-1B, with α2δ, β3 subunits (Cacna1b, Rattus norvegicus, UniProt Q02294)
Spike glycoprotein: Spike glycoprotein (Severe acute respiratory syndrome coronavirus, UniProt P59594)

Sequences of proteins named here, by UniProt entry; tags and fusion partners are left off. A change or cut given only in a name is not applied to a line headed by its entry. Residues count along the entry.
UniProt Q02294, whole entry, looked up: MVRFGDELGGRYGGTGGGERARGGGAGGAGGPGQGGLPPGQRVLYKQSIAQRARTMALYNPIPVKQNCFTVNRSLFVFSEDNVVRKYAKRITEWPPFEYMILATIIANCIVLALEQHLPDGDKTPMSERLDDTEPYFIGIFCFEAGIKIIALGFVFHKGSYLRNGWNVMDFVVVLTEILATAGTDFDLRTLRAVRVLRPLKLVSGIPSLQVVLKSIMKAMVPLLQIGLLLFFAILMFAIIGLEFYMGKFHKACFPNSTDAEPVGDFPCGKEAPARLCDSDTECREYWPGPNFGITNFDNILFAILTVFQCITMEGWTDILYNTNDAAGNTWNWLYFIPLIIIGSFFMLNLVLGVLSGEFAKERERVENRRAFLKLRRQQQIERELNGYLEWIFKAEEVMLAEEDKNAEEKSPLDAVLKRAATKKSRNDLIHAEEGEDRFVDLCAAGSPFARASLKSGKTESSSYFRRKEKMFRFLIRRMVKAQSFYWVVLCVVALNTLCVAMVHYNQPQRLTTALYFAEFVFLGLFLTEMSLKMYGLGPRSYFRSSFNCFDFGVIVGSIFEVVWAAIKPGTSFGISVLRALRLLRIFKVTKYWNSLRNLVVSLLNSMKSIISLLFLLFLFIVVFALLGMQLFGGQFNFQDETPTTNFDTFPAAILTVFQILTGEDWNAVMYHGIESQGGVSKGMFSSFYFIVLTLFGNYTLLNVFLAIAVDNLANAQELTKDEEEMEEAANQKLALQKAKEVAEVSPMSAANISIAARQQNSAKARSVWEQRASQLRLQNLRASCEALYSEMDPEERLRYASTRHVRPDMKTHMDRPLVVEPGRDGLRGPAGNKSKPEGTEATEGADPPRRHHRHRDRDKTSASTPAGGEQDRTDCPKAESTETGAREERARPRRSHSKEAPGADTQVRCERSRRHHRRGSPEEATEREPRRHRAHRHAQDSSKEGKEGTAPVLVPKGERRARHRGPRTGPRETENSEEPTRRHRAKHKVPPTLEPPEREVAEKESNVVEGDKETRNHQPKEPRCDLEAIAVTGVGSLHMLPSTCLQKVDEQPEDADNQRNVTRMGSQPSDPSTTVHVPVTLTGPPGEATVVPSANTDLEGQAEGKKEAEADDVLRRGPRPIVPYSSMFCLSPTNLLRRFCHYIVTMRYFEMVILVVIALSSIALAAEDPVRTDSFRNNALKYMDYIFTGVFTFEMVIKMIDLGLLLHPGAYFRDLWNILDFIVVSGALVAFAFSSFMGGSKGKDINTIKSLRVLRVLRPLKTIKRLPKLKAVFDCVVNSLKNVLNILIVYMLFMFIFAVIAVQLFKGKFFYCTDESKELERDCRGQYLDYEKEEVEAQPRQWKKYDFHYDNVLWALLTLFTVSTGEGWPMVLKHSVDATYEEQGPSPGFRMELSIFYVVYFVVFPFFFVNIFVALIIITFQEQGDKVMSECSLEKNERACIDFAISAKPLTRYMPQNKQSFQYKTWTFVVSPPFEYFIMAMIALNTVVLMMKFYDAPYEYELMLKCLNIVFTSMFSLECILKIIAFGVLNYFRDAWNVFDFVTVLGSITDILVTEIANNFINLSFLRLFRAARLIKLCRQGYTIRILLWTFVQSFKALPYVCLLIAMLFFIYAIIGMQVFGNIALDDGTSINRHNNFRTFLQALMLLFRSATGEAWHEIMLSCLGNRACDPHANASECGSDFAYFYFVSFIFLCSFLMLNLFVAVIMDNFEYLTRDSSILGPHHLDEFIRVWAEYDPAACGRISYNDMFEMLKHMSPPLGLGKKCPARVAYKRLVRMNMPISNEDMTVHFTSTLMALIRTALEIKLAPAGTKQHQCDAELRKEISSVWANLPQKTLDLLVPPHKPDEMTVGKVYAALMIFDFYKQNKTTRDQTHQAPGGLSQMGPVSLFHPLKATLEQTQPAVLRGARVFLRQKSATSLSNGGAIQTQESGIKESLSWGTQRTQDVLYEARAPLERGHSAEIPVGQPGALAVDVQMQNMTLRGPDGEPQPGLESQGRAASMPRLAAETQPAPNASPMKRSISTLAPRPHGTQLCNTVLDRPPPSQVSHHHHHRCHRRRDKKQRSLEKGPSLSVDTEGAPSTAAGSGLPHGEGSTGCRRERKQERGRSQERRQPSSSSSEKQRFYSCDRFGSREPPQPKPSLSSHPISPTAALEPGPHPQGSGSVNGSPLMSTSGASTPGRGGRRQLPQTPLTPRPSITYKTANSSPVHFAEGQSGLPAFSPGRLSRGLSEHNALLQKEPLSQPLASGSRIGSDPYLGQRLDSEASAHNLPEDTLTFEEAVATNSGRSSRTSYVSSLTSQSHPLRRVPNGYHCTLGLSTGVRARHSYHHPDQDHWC
UniProt P04775, whole entry: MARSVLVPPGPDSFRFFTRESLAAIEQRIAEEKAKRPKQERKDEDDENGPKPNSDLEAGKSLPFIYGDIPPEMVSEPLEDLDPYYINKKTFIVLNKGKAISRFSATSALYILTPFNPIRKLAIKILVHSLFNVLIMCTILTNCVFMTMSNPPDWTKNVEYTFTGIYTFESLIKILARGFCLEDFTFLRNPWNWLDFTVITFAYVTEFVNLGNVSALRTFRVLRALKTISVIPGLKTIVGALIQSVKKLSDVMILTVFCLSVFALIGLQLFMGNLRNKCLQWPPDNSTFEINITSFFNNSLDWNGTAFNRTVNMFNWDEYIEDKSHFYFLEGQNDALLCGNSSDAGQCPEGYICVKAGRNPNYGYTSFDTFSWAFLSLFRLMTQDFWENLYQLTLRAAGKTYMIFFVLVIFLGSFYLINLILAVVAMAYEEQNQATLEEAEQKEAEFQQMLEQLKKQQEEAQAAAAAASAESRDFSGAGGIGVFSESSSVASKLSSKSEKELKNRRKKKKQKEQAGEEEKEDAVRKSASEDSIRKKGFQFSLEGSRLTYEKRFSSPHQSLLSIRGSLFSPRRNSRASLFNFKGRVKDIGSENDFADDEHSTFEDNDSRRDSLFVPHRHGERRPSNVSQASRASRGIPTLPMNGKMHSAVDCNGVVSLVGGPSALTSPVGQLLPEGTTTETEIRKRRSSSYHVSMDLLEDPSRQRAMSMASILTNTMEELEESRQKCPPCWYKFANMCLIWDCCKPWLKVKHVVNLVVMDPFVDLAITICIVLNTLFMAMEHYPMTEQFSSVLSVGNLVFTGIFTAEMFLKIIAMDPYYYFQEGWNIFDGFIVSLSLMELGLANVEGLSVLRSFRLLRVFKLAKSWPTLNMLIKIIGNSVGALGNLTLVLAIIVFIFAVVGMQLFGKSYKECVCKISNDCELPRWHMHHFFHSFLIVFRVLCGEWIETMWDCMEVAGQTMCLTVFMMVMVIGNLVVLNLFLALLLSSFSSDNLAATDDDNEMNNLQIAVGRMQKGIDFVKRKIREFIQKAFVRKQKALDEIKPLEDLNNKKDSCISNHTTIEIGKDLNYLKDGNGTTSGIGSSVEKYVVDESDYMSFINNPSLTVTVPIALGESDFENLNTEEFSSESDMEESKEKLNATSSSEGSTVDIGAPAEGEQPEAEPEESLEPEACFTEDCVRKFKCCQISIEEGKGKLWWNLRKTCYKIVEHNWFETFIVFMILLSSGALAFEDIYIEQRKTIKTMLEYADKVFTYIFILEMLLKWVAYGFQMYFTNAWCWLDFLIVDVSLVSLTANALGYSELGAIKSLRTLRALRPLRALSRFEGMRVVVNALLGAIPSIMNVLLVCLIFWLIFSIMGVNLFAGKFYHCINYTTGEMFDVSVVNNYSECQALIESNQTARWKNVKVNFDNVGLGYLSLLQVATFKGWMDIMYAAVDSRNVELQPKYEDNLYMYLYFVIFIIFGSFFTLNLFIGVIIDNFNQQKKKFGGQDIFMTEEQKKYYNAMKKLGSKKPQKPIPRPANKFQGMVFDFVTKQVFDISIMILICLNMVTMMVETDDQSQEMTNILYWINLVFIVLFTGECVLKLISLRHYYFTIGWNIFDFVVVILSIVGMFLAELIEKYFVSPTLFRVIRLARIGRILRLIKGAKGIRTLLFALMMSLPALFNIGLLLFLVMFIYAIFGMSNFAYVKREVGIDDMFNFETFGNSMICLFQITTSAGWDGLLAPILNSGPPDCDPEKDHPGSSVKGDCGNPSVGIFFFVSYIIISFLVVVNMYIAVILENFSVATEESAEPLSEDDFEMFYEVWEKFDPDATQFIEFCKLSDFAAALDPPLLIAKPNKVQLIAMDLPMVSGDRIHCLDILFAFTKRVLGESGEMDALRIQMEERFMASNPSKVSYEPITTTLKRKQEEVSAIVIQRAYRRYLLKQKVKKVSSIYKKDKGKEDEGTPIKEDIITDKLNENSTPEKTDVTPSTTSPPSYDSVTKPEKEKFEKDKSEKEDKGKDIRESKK
UniProt P43144, 26-479 limits assumed: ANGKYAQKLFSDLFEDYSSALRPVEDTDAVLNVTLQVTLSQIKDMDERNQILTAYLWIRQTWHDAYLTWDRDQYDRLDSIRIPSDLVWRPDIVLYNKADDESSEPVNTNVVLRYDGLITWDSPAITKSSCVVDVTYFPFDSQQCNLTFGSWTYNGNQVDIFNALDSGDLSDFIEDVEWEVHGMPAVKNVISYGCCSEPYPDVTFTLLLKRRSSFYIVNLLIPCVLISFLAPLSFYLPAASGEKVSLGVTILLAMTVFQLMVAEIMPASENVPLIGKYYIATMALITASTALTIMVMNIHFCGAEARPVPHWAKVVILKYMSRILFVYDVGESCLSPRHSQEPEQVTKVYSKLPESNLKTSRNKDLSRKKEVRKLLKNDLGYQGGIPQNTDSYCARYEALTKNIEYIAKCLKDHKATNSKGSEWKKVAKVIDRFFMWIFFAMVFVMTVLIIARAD
UniProt Q9JLB5, 25-447 limits assumed: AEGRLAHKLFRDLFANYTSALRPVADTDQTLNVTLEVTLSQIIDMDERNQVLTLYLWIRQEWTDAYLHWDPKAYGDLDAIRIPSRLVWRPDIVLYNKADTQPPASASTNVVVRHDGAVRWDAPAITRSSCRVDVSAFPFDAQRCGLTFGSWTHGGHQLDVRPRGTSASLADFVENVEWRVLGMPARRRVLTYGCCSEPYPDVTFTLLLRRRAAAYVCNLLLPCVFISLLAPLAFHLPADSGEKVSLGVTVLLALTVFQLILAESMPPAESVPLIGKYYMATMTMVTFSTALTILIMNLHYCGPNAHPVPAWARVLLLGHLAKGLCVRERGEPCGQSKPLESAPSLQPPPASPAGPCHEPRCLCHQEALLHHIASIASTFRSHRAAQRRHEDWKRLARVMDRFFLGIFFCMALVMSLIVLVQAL
UniProt P02716, whole entry, looked up: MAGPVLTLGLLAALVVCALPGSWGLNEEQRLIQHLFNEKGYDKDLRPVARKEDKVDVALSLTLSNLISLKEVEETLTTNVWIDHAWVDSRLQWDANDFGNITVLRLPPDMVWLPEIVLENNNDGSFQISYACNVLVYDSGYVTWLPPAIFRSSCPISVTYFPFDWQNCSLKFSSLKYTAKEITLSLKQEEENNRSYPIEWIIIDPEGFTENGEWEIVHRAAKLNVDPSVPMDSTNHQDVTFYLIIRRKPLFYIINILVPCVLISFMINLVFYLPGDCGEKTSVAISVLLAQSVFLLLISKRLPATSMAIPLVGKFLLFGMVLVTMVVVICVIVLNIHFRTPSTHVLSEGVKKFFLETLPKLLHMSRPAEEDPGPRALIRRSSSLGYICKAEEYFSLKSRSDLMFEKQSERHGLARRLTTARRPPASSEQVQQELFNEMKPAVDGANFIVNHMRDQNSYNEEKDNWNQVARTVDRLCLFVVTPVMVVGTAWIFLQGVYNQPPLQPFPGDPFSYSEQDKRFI
UniProt P20782, whole entry, looked up: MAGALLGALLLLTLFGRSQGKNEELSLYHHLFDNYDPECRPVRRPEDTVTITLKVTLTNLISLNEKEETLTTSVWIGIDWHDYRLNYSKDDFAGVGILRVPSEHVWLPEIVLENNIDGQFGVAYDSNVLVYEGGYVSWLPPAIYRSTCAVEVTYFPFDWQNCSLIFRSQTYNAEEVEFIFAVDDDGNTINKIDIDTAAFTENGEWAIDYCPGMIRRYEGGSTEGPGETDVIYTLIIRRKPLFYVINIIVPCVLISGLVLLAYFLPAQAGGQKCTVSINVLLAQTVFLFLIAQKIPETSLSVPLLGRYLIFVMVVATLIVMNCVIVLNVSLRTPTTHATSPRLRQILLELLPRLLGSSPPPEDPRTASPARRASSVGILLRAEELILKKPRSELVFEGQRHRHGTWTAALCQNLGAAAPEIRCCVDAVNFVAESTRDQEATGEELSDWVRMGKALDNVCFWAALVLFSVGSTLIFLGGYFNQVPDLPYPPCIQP

SMILES	target	test	test system	setting	IC50 [µM]
CCOc1ccccc1-c1cc(C(=O)NC/C=C/S(C)(=O)=O)nn1COC	Polyprotein P1234, nsP2 protease (Chikungunya virus, UniProt Q5XXP4)	FRET	–	–	30 ± 7
CNc1nc(N2CCNCC2)c2sc3nc(N4CCOCC4)ccc3c2n1	Beta-glucuronidase (bglR, Clostridium perfringens, UniProt Q8XP19)	enzyme activity, inhibitor	–	–	0.03 ± 0.008
Brc1ccc(Cn2cnc3ccccc32)cc1	Enoyl-[acyl-carrier-protein] reductase [NADH] (Francisella tularensis subsp. tularensis, UniProt Q5NGQ3)	–	–	–	27
CC[C@H](C)[C@H](NC(=O)[C@H](C)NC(=O)[C@H](CCC(=O)O)NC(=O)[C@H](CCC(=O)O)NC(=O)[C@H](CC(C)C)NC(=O)[C@H](CCCCN)NC(=O)[C@H](CCCCN)NC(=O)[C@H](CCSC)NC(=O)[C@H](CCC(=O)O)NC(=O)[C@H](Cc1ccc(O)cc1)NC(=O)[C@H](CCC(=O)O)NC(=O)[C@H](CC(C)C)NC(=O)[C@H](CC(=O)O)NC(=O)[C@H](CC(C)C)NC(=O)[C@H](Cc1ccccc1)NC(=O)[C@@H](NC(=O)[C@@H](NC(=O)[C@H](CC(N)=O)NC(=O)[C@@H](NC(=O)[C@H](CCC(N)=O)NC(=O)[C@H](CC(=O)O)NC(=O)[C@H](CC(C)C)NC(=O)[C@@H](N)CO)[C@@H](C)CC)C(C)C)[C@@H](C)O)C(=O)N[C@@H](CCCCN)C(=O)N[C@@H](CCCCN)C(=O)N[C@@H](CC(C)C)C(=O)N[C@@H](CCC(=O)O)C(=O)N[C@@H](CCC(=O)O)C(=O)N[C@H](C(=O)N[C@@H](Cc1ccc(O)cc1)C(=O)N[C@H](C(=O)N[C@@H](CC(=O)O)C(=O)N[C@@H](CC(C)C)C(=O)N[C@@H](CCCCN)C(=O)N[C@@H](CCC(=O)O)C(=O)N[C@@H](CC(C)C)C(=O)O)[C@@H](C)CC)[C@@H](C)O	Spike glycoprotein Beta variant	cell-cell fusion, inhibitor, luciferase fusion	293T donor, Huh-7 target	16 h, 37 °C	0.0584
CC[C@H](C)[C@@H]1NC(=O)[C@@H]2CSSC[C@H](NC(=O)[C@H](CCCNC(=N)N)NC(=O)[C@@H]3CSSC[C@H](NC1=O)C(=O)N[C@@H]([C@@H](C)O)C(=O)N[C@@H](CCCNC(=N)N)C(=O)NCC(=O)N[C@@H](Cc1ccccc1)C(=O)N3)C(=O)N[C@@H](CC(C)C)C(=O)N[C@H]1CSSC[C@H](NC(=O)[C@H](C(C)C)NC(=O)CNC(=O)[C@H](CCCNC(=N)N)NC(=O)[C@H](CCCNC(=N)N)NC1=O)C(=O)N[C@@H](CCCNC(=N)N)C(=O)N2	Lethal factor (Bacillus anthracis, UniProt P15917)	enzyme activity, inhibitor, FRET substrate	–	pH 7.2	0.406 ± 0.022
C[C@@H](O)[C@@H]1NC(=O)[C@@H]2CSSC[C@H](N)C(=O)N[C@@H](CCCCN)C(=O)N[C@@H](CCCNC(=N)N)C(=O)N[C@@H](CCCCN)C(=O)NCC(=O)N[C@@H](CO)C(=O)N[C@@H](CO)C(=O)N[C@H]3CSSC[C@H](NC(=O)[C@H](CO)NC(=O)CNC1=O)C(=O)N[C@@H](CCCNC(=N)N)C(=O)N[C@@H](CC(N)=O)C(=O)NCC(=O)N[C@@H](CCCCN)C(=O)N[C@H](C(N)=O)CSSC[C@H](NC(=O)[C@H](CC(=O)O)NC(=O)[C@H](Cc1ccc(O)cc1)NC(=O)[C@H](CO)NC(=O)[C@H]([C@@H](C)O)NC(=O)[C@H](CCCNC(=N)N)NC(=O)[C@H](CCCNC(=N)N)NC3=O)C(=O)N2	Cacna1b with α2δ, β3 subunits	Ba2+ current, inhibitor, whole-cell patch clamp	HEK293 expressing α2δ and β3	22 °C, with: Ba2+ 20 mM	0.089
CC[C@H](C)[C@H](NC(=O)[C@H](C)NC(=O)[C@H](CCC(=O)O)NC(=O)[C@H](CCC(=O)O)NC(=O)[C@H](CC(C)C)NC(=O)[C@H](CCCCN)NC(=O)[C@H](CCCCN)NC(=O)[C@H](CCSC)NC(=O)[C@H](CCC(=O)O)NC(=O)[C@H](Cc1ccc(O)cc1)NC(=O)[C@H](CCC(=O)O)NC(=O)[C@H](CC(C)C)NC(=O)[C@H](CC(=O)O)NC(=O)[C@H](CC(C)C)NC(=O)[C@H](Cc1ccccc1)NC(=O)[C@H](Cc1ccccc1)NC(=O)[C@@H](NC(=O)[C@H](CC(N)=O)NC(=O)[C@@H](NC(=O)[C@H](CCC(N)=O)NC(=O)[C@H](CC(=O)O)NC(=O)[C@H](CC(C)C)NC(=O)[C@@H](N)CO)[C@@H](C)CC)C(C)C)C(=O)N[C@@H](CCCCN)C(=O)N[C@@H](CCCCN)C(=O)N[C@@H](CC(C)C)C(=O)N[C@@H](CCC(=O)O)C(=O)N[C@@H](CCC(=O)O)C(=O)N[C@H](C(=O)N[C@@H](Cc1ccc(O)cc1)C(=O)N[C@H](C(=O)N[C@@H](CC(=O)O)C(=O)N[C@@H](CC(C)C)C(=O)N[C@@H](CCCCN)C(=O)N[C@@H](CCC(=O)O)C(=O)N[C@@H](CC(C)C)C(=O)O)[C@@H](C)CC)[C@@H](C)O	Spike glycoprotein	cell-cell fusion, inhibitor, luciferase fusion	293T donor, Huh-7 target	16 h, 37 °C, dual mutations	0.00885
CN(C)CCCCNC(=O)C[C@H](Cc1ccc(F)cc1)NC(=O)[C@@H](Cc1ccc(Cl)cc1Cl)NC(=O)[C@H](Cc1ccccc1C#N)NC(=O)C(F)(F)F	Replicase polyprotein 1ab, main protease (rep, Severe acute respiratory syndrome coronavirus 2, UniProt P0DTD1)	enzyme activity, inhibitor	–	–	> 10
CC(=O)N[C@@H](CCCCN)C(=O)N[C@@H](Cc1c[nH]c2ccccc12)C(=O)N[C@@H](CCCCN)C(=O)N[C@@H](CCCNC(=N)N)C(=O)N[C@@H](CC(=O)O)C(=O)N[C@@H](Cc1c[nH]cn1)C(=O)N[C@@H](CC(=O)O)C(=O)N[C@@H](CCCNC(=N)N)C(N)=O	Sodium channel protein type 2 subunit alpha (Scn2a, Rattus norvegicus, UniProt P04775)	ion current, inhibitor, Hill equation fit	–	rat channel	144 ± 1.1
Cc1n[nH]c(C)c1S(=O)(=O)Nc1ccc2c[nH]nc2c1	Inosine-5'-monophosphate dehydrogenase (Mycobacterium tuberculosis, UniProt P9WKI7, D250G/del126-249)	enzyme activity	–	–	0.38 ± 0.02
CC[C@H](C)[C@H](NC(=O)[C@H](C)NC(=O)[C@H](CCC(=O)O)NC(=O)[C@H](CCC(=O)O)NC(=O)[C@H](CC(C)C)NC(=O)[C@H](CCCCN)NC(=O)[C@H](CCCCN)NC(=O)[C@H](CCSC)NC(=O)[C@H](CCC(=O)O)NC(=O)[C@H](Cc1ccc(O)cc1)NC(=O)[C@H](CCC(=O)O)NC(=O)[C@H](CC(C)C)NC(=O)[C@H](CC(=O)O)NC(=O)[C@H](CC(C)C)NC(=O)[C@H](Cc1ccccc1)NC(=O)[C@H](Cc1ccc(O)cc1)NC(=O)[C@@H](NC(=O)[C@H](CC(N)=O)NC(=O)[C@@H](NC(=O)[C@H](CCC(N)=O)NC(=O)[C@H](CC(=O)O)NC(=O)[C@H](CC(C)C)NC(=O)[C@@H](N)CO)[C@@H](C)CC)C(C)C)C(=O)N[C@@H](CCCCN)C(=O)N[C@@H](CCCCN)C(=O)N[C@@H](CC(C)C)C(=O)N[C@@H](CCC(=O)O)C(=O)N[C@@H](CCC(=O)O)C(=O)N[C@@H](C)C(=O)N[C@@H](Cc1ccc(O)cc1)C(=O)N[C@H](C(=O)N[C@@H](CC(=O)O)C(=O)N[C@@H](CC(C)C)C(=O)N[C@@H](CCCCN)C(=O)N[C@@H](CCC(=O)O)C(=O)N[C@@H](CC(C)C)C(=O)O)[C@@H](C)CC	Spike glycoprotein	cell-cell fusion, inhibitor, luciferase fusion	293T donor, Huh-7 target	16 h, 37 °C, dual mutations	0.00706
CN1C(=CC=CC=CC2=[N+](CCCCC(=O)NCC(=O)N[C@H]3CSSC[C@@H]4NC(=O)[C@H](CCCNC(=N)N)NC(=O)[C@@H]5CCCN5C(=O)[C@H](CC(=O)O)NC(=O)[C@H](CO)NC(=O)[C@H](CSSC[C@@H](C(=O)N[C@@H](CCCNC(=N)N)C(=O)O)NC(=O)[C@H](CCCNC(=N)N)NC(=O)[C@H](Cc5ccc(O)cc5)NC(=O)[C@H](CCCNC(=N)N)NC4=O)NC3=O)c3ccccc3C2(C)C)C(C)(C)c2ccccc21	Nicotinic acetylcholine receptor alpha9/alpha10 (Rattus norvegicus, UniProt P43144+Q9JLB5)	ACh-evoked current, antagonist, two-electrode voltage clamp	Xenopus oocytes	holding potential -80 mV, with: ACh 100 µM	0.005 ± 0.0008
CC[C@H](C)[C@H](NC(=O)[C@H](C)NC(=O)[C@H](CCC(=O)O)NC(=O)[C@H](CCC(=O)O)NC(=O)[C@H](CC(C)C)NC(=O)[C@H](CCCCN)NC(=O)[C@H](CCCCN)NC(=O)[C@H](CCSC)NC(=O)[C@H](CCC(=O)O)NC(=O)[C@H](Cc1ccc(O)cc1)NC(=O)[C@H](CCC(=O)O)NC(=O)[C@H](CC(C)C)NC(=O)[C@H](CC(=O)O)NC(=O)[C@H](CC(C)C)NC(=O)[C@H](Cc1ccccc1)NC(=O)[C@H](Cc1ccccc1)NC(=O)[C@@H](NC(=O)[C@H](CC(N)=O)NC(=O)[C@@H](NC(=O)[C@H](CCC(N)=O)NC(=O)[C@H](CC(=O)O)NC(=O)[C@H](CC(C)C)NC(=O)[C@@H](N)CO)[C@@H](C)CC)C(C)C)C(=O)N[C@@H](CCCCN)C(=O)N[C@@H](CCCCN)C(=O)N[C@@H](CC(C)C)C(=O)N[C@@H](CCC(=O)O)C(=O)N[C@@H](CCC(=O)O)C(=O)N[C@@H](C)C(=O)N[C@@H](Cc1ccc(O)cc1)C(=O)N[C@H](C(=O)N[C@@H](CC(=O)O)C(=O)N[C@@H](CC(C)C)C(=O)N[C@@H](CCCCN)C(=O)N[C@@H](CCC(=O)O)C(=O)N[C@@H](CC(C)C)C(=O)O)[C@@H](C)CC	Spike glycoprotein Beta variant	cell-cell fusion, inhibitor, luciferase fusion	293T donor, Huh-7 target	16 h, 37 °C, dual mutations	0.146
CC[C@H](C)[C@@H]1NC(=O)[C@H](CC(=O)O)NC(=O)[C@@H]2CCCN2C(=O)[C@H](CC(N)=O)NC(=O)[C@H](CCC(N)=O)NC(=O)[C@H](CC(C)C)NC(=O)[C@H]([C@@H](C)CC)NC(=O)[C@@H]2CSSC[C@H](NC(=O)[C@@H](N)CC(=O)O)C(=O)N[C@@H](CSSC[C@@H](C(N)=O)NC1=O)C(=O)N[C@@H](CO)C(=O)N[C@@H](C)C(=O)N1CCC[C@H]1C(=O)N1CCC[C@H]1C(=O)N2	Nicotinic acetylcholine receptor alpha1/beta1/epsilon/delta (Mus musculus, UniProt P02716+P04756+P09690+P20782)	ACh-evoked current, antagonist, two-electrode voltage clamp	Xenopus oocytes	mouse receptor, with: acetylcholine 10 µM	> 10
CC[C@H](C)[C@H](NC(=O)[C@H](C)NC(=O)[C@H](CCC(=O)O)NC(=O)[C@H](CCC(=O)O)NC(=O)[C@H](CC(C)C)NC(=O)[C@H](CCCCN)NC(=O)[C@H](CCCCN)NC(=O)[C@H](CCSC)NC(=O)[C@H](CCC(=O)O)NC(=O)[C@H](Cc1ccc(O)cc1)NC(=O)[C@H](CCC(=O)O)NC(=O)[C@H](CC(C)C)NC(=O)[C@H](CC(=O)O)NC(=O)[C@H](CC(C)C)NC(=O)[C@H](Cc1ccccc1)NC(=O)[C@@H](NC(=O)[C@@H](NC(=O)[C@H](CC(N)=O)NC(=O)[C@@H](NC(=O)[C@H](CCC(N)=O)NC(=O)[C@H](CC(=O)O)NC(=O)[C@H](CC(C)C)NC(=O)[C@@H](N)CO)[C@@H](C)CC)C(C)C)[C@@H](C)O)C(=O)N[C@@H](CCCCN)C(=O)N[C@@H](CCCCN)C(=O)N[C@@H](CC(C)C)C(=O)N[C@@H](CCC(=O)O)C(=O)N[C@@H](CCC(=O)O)C(=O)N[C@@H](CO)C(=O)N[C@@H](Cc1ccc(O)cc1)C(=O)N[C@H](C(=O)N[C@@H](CC(=O)O)C(=O)N[C@@H](CC(C)C)C(=O)N[C@@H](CCCCN)C(=O)N[C@@H](CCC(=O)O)C(=O)N[C@@H](CC(C)C)C(=O)O)[C@@H](C)CC	Spike glycoprotein Beta variant	cell-cell fusion, inhibitor, luciferase fusion	293T donor, Huh-7 target	16 h, 37 °C	0.146
C[C@@H](O)[C@@H]1NC(=O)[C@@H]2CSSC[C@H](N)C(=O)N[C@@H](CCCCN)C(=O)N[C@@H](CCCNC(=N)N)C(=O)N[C@@H](CCCCN)C(=O)NCC(=O)N[C@@H](CO)C(=O)N[C@@H](CO)C(=O)N[C@H]3CSSC[C@H](NC(=O)[C@H](CO)NC(=O)CNC1=O)C(=O)N[C@@H](CCCNC(=N)N)C(=O)N[C@@H](CC(N)=O)C(=O)NCC(=O)N[C@@H](CCCCN)C(=O)N[C@H](C(N)=O)CSSC[C@H](NC(=O)[C@H](CC(=O)O)NC(=O)[C@H](Cc1ccc(O)cc1)NC(=O)[C@H](CO)NC(=O)[C@H]([C@@H](C)O)NC(=O)[C@H](CCCNC(=N)N)NC(=O)[C@H](CO)NC3=O)C(=O)N2	Cacna1b with α2δ, β3 subunits	Ba2+ current, inhibitor, whole-cell patch clamp	HEK293 expressing α2δ and β3	22 °C, with: Ba2+ 20 mM	0.136
O=C(O)C(O)=CC(=O)c1ccc2cc(O)c(O)cc2c1	Nucleoprotein, exonuclease domain (N, Machupo virus, UniProt P26578)	inhibitor	–	–	5.42 ± 0.46

Some of these lines once more:
SMILES	target	test	test system	setting	IC50 [µM]
CNc1nc(N2CCNCC2)c2sc3nc(N4CCOCC4)ccc3c2n1	Beta-glucuronidase (bglR, Clostridium perfringens, UniProt Q8XP19)	enzyme activity, inhibitor	–	–	0.03 ± 0.008
Brc1ccc(Cn2cnc3ccccc32)cc1	Enoyl-[acyl-carrier-protein] reductase [NADH] (Francisella tularensis subsp. tularensis, UniProt Q5NGQ3)	–	–	–	27
